# Published values of several laboratories.
# Parts stem from different laboratories: compare values within a part only.

# Block 1
# Target: Interferon regulatory factor 5, full length, phosphomimetic (IRF5, Homo sapiens, UniProt Q13568-2, residues 1-514, S451D/S453D/S456D/S462D)
# Method: protein-binding microarray
# Molecule type: double-stranded DNA, one strand shown
# Matrix: in vitro
# Concentration: 940 nM top
# Setting: 60-bp whole probe
# Added: salmon DNA 0.4 mg/ml
# Relative to: random background probes
# Reading: higher = stronger binding
# Shared flanks, not repeated: GCCTAGCAC … GTCTTGATTCGCTTGACGCTGCTG
Oligonucleotide,fitted relative affinity
TTAGGTATCGGACTGCGTTAGTGCTAG,3.57 z-score
TCACAACTTTTTTTAATACTGTGCTAG,1.05 z-score
TTAGGTTTCGGGCTCGGTTAGTGCTAG,8.59 z-score
TGTCTTCCCCATCTTGTTCCGTGCTAG,1.39 z-score
GACGAACTGGGGACTGGAGAAGTGCTA,0.443 z-score
TCATGTTTCTACTGTCTGACTGTGCTA,0.883 z-score
TTAGATTTCGGGTATCGATAAGTGCTA,3.37 z-score
TTAGGTATCCTATTGCTTTAGTGCTAG,0.101 z-score
TTAGGTATCGGTATCTGTTAGTGCTAG,9.75 z-score
TTCGATATCAGTATCGATTAGTGCTAG,5.3 z-score
TTAGGTCACCTACTGCTTTAGTGCTAG,-0.252 z-score
GACGGTTTCGCTTTCGGGACGTGCTAG,9.39 z-score
TCATATTTAAGACCTATGACTGTGCTA,0.315 z-score
CCAGAGTCCTGTTTGATAATGTGCTAG,-0.189 z-score
TTAGGTTCCCTTTTCCTATAGTGCTAG,1.3 z-score
TACGATATCAGTATCGAGACGTGCTAG,1.68 z-score
TCACTTCTTTTTTATTCTACTGTGCTA,2.07 z-score
TCATCAACCAGTTTTCTTACTGTGCTA,0.596 z-score

# Block 2
# Target: Ras GTPase-activating protein-binding protein 1, C-terminal RGG region (G3BP1, Homo sapiens, UniProt Q13283)
# Sequence of UniProt Q13283 (whole entry, looked up): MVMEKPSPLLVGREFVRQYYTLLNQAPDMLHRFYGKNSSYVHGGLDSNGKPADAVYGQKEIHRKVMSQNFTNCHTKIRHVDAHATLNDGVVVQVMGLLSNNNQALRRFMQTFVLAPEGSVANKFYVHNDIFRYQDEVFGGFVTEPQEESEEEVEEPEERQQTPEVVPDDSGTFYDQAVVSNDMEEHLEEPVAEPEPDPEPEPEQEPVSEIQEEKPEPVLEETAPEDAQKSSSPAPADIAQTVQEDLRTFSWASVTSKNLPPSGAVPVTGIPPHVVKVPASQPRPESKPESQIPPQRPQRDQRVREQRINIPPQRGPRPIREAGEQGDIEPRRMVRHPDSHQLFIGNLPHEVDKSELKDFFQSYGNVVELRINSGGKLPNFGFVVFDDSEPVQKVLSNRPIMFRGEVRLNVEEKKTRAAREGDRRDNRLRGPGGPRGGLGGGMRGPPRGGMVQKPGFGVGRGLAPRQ
# Method: RNA Bind-n-Seq
# Molecule type: RNA
# Matrix: in vitro
# Concentration: 1 µM
# Setting: whole 134-nt RNA, ends assumed
# Added: 150 mM KCl
# Relative to: input library
# Reading: higher = stronger binding
Oligonucleotide,log2 enrichment
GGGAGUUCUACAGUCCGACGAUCGUCCUGUGCUACACAUCGUAUGUACCGAAUCAAAUUUUUUUAAAUUUAAACCCCCAAAAAAGUAUUAUGUUACGCCGUUCGGAUCUGCACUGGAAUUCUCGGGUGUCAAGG,-0.764
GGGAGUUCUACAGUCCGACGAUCUCAGUGUCUUACCCUGAAGAGAAAGUUGUAGGUUGGCUGUUGAAAUUCAUUCCUUAGAUAUGAUCAGUUUGAUUGCCCGGCUUUAUUGCCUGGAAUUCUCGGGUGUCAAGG,-1.89
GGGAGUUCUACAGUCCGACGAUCGGUGGAAUCCAUAGAGCUCCCCAUGGACAACAAGACCAAUAAGAGGCGUGGGUUCUGCUUUAUUACCUUUAAGGAAGAAGAACCAGUGAAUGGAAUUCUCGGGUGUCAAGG,-1.21
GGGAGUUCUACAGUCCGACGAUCUAAUUAUGUUUUAUUUUCUUUAAUUGCAGGACUUCAUAGACCUCACGUUGUCGAAGACUCAACGAAAGACUCCAACCGUUAUUCAUAAACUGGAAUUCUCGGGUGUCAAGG,-0.676
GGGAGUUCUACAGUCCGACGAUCCAAGUCCUGUGCUACACAUCGUAUGUACCGAAUCGGAAAAAGGAGGUUUUUUUGGAAAGUAUUAUGUUACGCCGUUCGGAUCUGCACUUCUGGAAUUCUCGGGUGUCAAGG,-1.81
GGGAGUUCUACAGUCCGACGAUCUCCUGUGCUACACAUCGUAUGUACCGAAUCGGGAAAAAAGGGAAAAAAGGAAAAAAGGGGAAAGUAUUAUGUUACGCCGUUCGGAUCUGCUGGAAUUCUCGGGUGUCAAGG,-1.41
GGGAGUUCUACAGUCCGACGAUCGUCCUGUGCUACACAUCGUAUGUACCGAAUCGGGAAAAAGGGAAAGGGAAAAAAAGGGAAAGUAUUAUGUUACGCCGUUCGGAUCUGCACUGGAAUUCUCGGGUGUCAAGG,-0.815
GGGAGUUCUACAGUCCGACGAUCUCCUCAAGUCCUGUGCUACACAUCGUAUGUACCGAAUCGGGGAGGGAGGAGGAAAGUAUUAUGUUACGCCGUUCGGAUCUGCACUUCCAGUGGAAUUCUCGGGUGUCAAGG,-0.485
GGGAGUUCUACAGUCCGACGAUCAAGUCCUGUGCUACACAUCGUAUGUACCGAAUCGGGUGGGUUUUUGGGAAAAAGGGAAAGUAUUAUGUUACGCCGUUCGGAUCUGCACUUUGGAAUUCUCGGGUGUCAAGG,-0.148

# Block 3
# Target: RING finger protein unkempt homolog, zinc fingers 1-6, GST-SBP tag (UNK, Homo sapiens, UniProt Q9C0B0, residues 30-357)
# Sequence of UniProt Q9C0B0 (30-357, looked up): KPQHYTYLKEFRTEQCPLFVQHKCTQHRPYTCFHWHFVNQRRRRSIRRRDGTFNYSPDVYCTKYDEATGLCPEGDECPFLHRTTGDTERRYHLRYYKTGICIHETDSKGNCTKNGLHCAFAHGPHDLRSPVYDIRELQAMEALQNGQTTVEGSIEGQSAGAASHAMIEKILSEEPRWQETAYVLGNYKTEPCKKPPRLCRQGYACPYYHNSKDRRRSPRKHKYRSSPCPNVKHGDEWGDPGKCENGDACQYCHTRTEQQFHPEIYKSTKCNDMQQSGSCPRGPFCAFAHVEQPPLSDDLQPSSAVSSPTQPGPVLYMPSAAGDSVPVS
# Method: RNA Bind-n-Seq
# Molecule type: RNA
# Matrix: in vitro
# Concentration: not given
# Setting: RNA with constant flanks, human and mouse sites, ends assumed
# Relative to: input RNA pool
# Reading: higher = stronger binding
Oligonucleotide,bound/input enrichment [ratio]
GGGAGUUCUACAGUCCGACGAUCACAUGUCACGUAGAAGAGACUCUCGGUGAGCAUUGCCUGUGAACUAAUAAUCCAGUGGACAAUAGGCUUUGCACCAGGGUGAGGUCCAGACCUCUGCAGCACAGAGCUCCCGAUGGUUGGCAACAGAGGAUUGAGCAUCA,0.338
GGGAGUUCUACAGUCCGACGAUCCAAAAAAUUUAUAACAAGAUCCCAGGGACGAGCAACAACGGGUUAGAGGAGGAGUUUAAGAAAUUAACUUCAAUCAAAAUCCAGAAUGACAAGAUGCGCACGGGAAACCUUCCAGCCAACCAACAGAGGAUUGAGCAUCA,0.173
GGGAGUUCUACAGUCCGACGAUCAAACACUCAAGAGCUGCCUGGUAUGAAGCAAAGAGGAUCCUGGGCUAUUUAAAGCUCUGGUAACCGAGAAGAACUUGCCCCUGUUCUUACCUAGCUUCUUUGAGUCAGUCAGUGUGCAGACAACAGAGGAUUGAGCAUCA,0.15
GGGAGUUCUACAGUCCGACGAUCCUUCCGUUUAUUGUUUCACAUAGGUUGUCUAAUACCUUGAGCUUAGAUAUUCAUGAAAAUCAUAGCCUUGCACUUCUAGGAAAGAAGAAAUCAAGCAGCUUAACAUUACCACCCAAAUACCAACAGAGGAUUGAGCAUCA,1.07
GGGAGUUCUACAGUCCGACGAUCUUCUGGUUCAGAUCUGUGCCGUUGGCUGCCACAAGUAUGCUGAUUACUCAAGGAUUAAUUAGUAAAGGAAUCCUGUCAAGUCAUCCAAAAUAUGGUUCAAUUCCUAAACUUCUAUUCGCUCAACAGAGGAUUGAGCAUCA,0.236
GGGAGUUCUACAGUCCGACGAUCUUUCUACCUACCAUGAUCAAGUGCUUGUCAGUUGAAGUACAAGCCAAAUUGCGUUCUGGUUUGGCCAUAAGCUCCUUGGGCCAAUGUGUUGAGGAACUUGCCCUCAACAGUAUUGAUGCUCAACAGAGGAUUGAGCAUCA,0.158
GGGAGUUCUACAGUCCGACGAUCGGGAUUUUGGACCAGGGGGAGGGUGUCCUGAUUAUUUUCGAUGAACCCCCAGUAGAUAAAACUUACGAAGCUGCUCUGGAAACAAUUCAGAACAUGAGCAAAGUAGUGGAUUCCCUCUACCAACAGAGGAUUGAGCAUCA,1.73
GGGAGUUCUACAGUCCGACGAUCGUUGUUCUUGUAGUGUUUGUUGCUAUUGUUAGAAAGAUUAUUAGUGAUAUGUGGGGUGUCUUAGCUAAACAACAGACACAUGUAAGAAAACACCAGUUUGAUCAUGGAGAGCUGGUUUACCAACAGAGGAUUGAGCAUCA,9.45

# Other studies, line by line
Molecule,target,assay,system,conditions,scale,quantity,value
MDASRQLMLNEEQ,human cyclin A2,"peptide binding, competitive growth sequencing","peptide, Saccharomyces cerevisiae, cyclin A2-Cln2 fusion strain",concentration not given,"relative to: unfused Cln2 strain, direction not given",binding score,-0.251

# For quick reference, copied from above (block 1):
Oligonucleotide,fitted relative affinity
GACGGTTTCGCTTTCGGGACGTGCTAG,9.39 z-score
TCATATTTAAGACCTATGACTGTGCTA,0.315 z-score
